Published values from different studies.
Each numbered part is a random draw from the data of one study; scales do not carry over between parts.

Series 1 — technique: universal PBM; molecule type: double-stranded DNA, one strand shown; medium: in vitro; tested at: 600 nM; direction: higher = stronger binding
Target: Sal-like protein 4, full length isoform A (SALL4, Homo sapiens, UniProt Q9UJQ4, residues 1-1053)
Chain of UniProt Q9UJQ4 (whole entry, looked up): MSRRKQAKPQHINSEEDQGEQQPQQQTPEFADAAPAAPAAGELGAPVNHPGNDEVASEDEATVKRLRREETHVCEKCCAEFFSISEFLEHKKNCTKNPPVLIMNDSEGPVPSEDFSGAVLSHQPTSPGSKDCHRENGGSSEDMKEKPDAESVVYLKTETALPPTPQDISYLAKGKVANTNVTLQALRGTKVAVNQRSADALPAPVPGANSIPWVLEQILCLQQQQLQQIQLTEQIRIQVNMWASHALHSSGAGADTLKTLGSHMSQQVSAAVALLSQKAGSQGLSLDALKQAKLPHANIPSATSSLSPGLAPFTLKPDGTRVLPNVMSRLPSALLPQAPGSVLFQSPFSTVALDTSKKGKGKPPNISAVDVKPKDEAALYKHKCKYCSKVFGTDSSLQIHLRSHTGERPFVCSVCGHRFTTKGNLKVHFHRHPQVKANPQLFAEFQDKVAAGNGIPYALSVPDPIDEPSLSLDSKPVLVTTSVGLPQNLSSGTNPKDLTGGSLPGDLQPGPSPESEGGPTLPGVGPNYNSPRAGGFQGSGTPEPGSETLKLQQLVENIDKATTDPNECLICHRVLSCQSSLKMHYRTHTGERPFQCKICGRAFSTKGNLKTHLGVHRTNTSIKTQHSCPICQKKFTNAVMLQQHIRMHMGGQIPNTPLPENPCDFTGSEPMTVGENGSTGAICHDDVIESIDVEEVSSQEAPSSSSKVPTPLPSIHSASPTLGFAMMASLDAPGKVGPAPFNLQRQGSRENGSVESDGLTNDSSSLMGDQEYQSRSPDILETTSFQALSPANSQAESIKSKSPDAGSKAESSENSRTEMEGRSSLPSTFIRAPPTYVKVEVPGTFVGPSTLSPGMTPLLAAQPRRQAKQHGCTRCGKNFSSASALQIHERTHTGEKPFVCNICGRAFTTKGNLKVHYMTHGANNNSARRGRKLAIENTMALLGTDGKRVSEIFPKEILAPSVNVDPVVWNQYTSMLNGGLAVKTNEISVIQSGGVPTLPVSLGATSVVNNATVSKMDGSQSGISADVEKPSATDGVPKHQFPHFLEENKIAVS
Setting: 8-mer, flanks averaged, mean of replicates
| Strand | E-score |
| --- | --- |
| GGGTTTAA | 0.115 |
| AGTGCCCG | -0.212 |
| ACCGCGCT | -0.247 |
| AATCGGTA | 0.157 |
| ACGCGGAC | -0.201 |
| AACTGGAA | 0.0669 |
| CCAGCGCG | -0.386 |
| CAACCAGG | -0.19 |
| ATGGTATC | 0.0965 |
| CGCGCAAA | 0.108 |
| GCTCCGGA | -0.228 |
| GCCTCGCA | -0.213 |
| ACGATTAT | 0.301 |
| AAGCTGAA | -0.0264 |
| AGACTCCG | -0.119 |
| CCTGTTCG | -0.181 |
| ACGAATGC | 0.0714 |
| AGCAACCT | -0.152 |
| AGGGGCCC | -0.385 |
| ATTGCAAA | 0.261 |
| AGGGAGAG | -0.00702 |
| AACTATGG | 0.101 |

Series 2 — technique: protein-binding microarray; molecule type: double-stranded DNA, one strand shown; medium: in vitro; tested at: 2200 nM top; setting: 60-bp whole probe; added: salmon DNA 0.4 mg/ml; reference: random background probes; direction: higher = stronger binding; all sequences stand within: GCCTAGCAC … GTCTTGATTCGCTTGACGCTGCTG
Target: Interferon regulatory factor 7, full length, phosphomimetic (IRF7, Homo sapiens, UniProt Q92985, residues 1-503, S471D/S472D/S475D/S476D/S477D/S483D/S484D/S487D)
Chain of UniProt Q92985 (whole entry, unmodified, looked up): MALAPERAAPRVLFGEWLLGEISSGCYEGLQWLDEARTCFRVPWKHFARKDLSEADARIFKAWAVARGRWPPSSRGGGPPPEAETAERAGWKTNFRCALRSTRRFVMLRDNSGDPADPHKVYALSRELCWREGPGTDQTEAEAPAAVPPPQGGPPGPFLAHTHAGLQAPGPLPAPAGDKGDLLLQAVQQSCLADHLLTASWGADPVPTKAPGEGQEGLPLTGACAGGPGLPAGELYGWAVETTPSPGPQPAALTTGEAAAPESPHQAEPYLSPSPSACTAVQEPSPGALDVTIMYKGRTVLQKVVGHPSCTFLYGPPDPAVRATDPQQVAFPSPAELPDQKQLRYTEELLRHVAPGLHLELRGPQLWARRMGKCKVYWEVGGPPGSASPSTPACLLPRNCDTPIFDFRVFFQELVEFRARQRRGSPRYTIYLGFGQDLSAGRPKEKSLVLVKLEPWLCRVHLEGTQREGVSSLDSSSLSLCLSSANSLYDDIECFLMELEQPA
| Strand | fitted relative affinity [z-score] |
| --- | --- |
| GACGCTCTCAGTCTCGAGACGTGCTAG | 0.643 |
| TCACCTCTCCCCTCTTGTACTGTGCTA | 1.65 |
| TCATGTTTGGTGTCTTTTACTGTGCTA | 1.63 |
| GACGGTATCCTTCTCATGACGTGCTAG | 1.16 |
| GACGGTCTCATTCTCCTGACGTGCTAG | 0.93 |
| GACGGACTGCGGTTTCGGGACGTGCTA | 1.97 |
| GACGGTCTCCTACTTCTGACGTGCTAG | 1.15 |
| GACGGACTGCTTCTCCTGAAGTGCTAG | 0.371 |
| TCAGGTTCCCTTTTCCTTTAGTGCTAG | 3.9 |
| GACGGTATTGGTATCGGGACGTGCTAG | 0.0587 |
| GACCGTTCCCTTTTCCTGACGTGCTAG | 2.54 |
| TTAGAACTGGGGACTCGATTAGTGCTA | -0.186 |
| TCAATCCTATATCTGAAACTGTGCTAG | 0.6 |
| CTGCTTGAAACTCTTACCCCGTGCTAG | 0.245 |
| AACGATCTCAGTATCGAGACGTGCTAG | -0.0417 |
| TTTATTTTTACATTATTACCGTGCTAG | 2.48 |
| GACTGACTGGGACTGGGGACGTGCTAG | -0.745 |
| GACGATCTCAGTATCGAGTCGTGCTAG | 0.593 |
| TCTCTTTCCAACTCTGTTTTCGTGCTA | 3.72 |

Series 3 — technique: RNA Bind-n-Seq; molecule type: RNA; medium: in vitro; tested at: 365 nM; reference: no-protein control; direction: higher = stronger binding
Target: RNA binding protein fox-1 homolog 2, RRM domain, GST-SBP tag (RBFOX2, Homo sapiens, UniProt O43251-10, residues 100-194)
Setting: natural RNA segment, single round, ends assumed
All sequences stand within: GGGAGUUCUACAGUCCGACGAUC … UGGAAUUCUCGGGUGCCAA
Target sequence (chain): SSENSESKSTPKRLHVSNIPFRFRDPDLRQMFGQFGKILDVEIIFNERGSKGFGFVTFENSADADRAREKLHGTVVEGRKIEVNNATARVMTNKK
| Strand | RBNS enrichment (R) |
| --- | --- |
| AAGCCUAUUGCCUUUUCUCCUUUUACUUCAGCACCCAGCUACUGACUGGUUUCCAUAUCCCCACCCUACACCAGGGUUCCAUUUGGAAGUAUACCUUGUUUAUCAGUCAG | 0.202 |
| AGCAGCCCCUAAGUGGGCCUCUAGAGCUGAAGACACACCCCUGGUGCCACCAGCCUGUGUGGCCCCUCCCCUUGGCCCUAGCUCCCAGCACCUCCCUACCCUUCAGCAGC | 1.01 |
| ACUGCAUCCAGCCUGGGGCUGAGGCUGAGGCACUGGCGAGGAGAGGGCGCUCCUCUCUGCACACCUACUAGUCACCAGAGACUUUAGGGGGUGGGAUUCCACUCGUGUGU | 2.28 |
| AGUAGUGGGAUAAGUCACUGUUUUCUUUACAAAACAAAACAGUCCUGUUGGGAAUGAUUGCUGUUGGAUUCUGGAAGGGAGGGGAAAGCUGCUCUGCUGCCUCUUUGCCA | 0.412 |
| CGAUCCAGUGGUAGCCUUUGAUACUCCAAAGUAAUUAUGUUCACCCUCUGUACUAAUGACAUUUACAAUUCUAAAAUUUUAUGAAAUUGAAAUGAAAACUAAGAGUUGUA | 0.623 |
| AAGACACUGGCCUGCAUCAGUUAGAGUCAGAGCAAGUGUCACUUCACAGGGAAAAGAAGGAUUAUAUAGACUUCCUAUCCCUAGAGUUUAUAAAUGUCAACUAUAUAAAA | 0.399 |
| AGGGCCUUGAAUCCUUUUUUGUUUUCAACAGUCUUGCUGAAUUAAGCAGAAAGGGCCUUGAAUCCUGGCCUGGAAUUUGGGCAGAUAUAGCAUUAAUAAAACUGUGCAUC | 0.598 |
| UAAUAAAUUUUUCUGAAGUCUCAAAGUCUUCUCAACAGUCAAGAAACCAAGCAAGCAAGCAAGAGCAUCCAGUUGUGAUUAGGGUUAAAAUCAUCCAUCCUAAUUAAUGA | 0.584 |

Series 4 — technique: RNA Bind-n-Seq; molecule type: RNA; medium: in vitro; tested at: 100 nM; reference: input RNA pool; direction: higher = stronger binding
Target: RING finger protein unkempt homolog, zinc fingers 1-6, SBP tag (UNK, Homo sapiens, UniProt Q9C0B0, residues 30-357)
Chain of UniProt Q9C0B0 (30-357, looked up): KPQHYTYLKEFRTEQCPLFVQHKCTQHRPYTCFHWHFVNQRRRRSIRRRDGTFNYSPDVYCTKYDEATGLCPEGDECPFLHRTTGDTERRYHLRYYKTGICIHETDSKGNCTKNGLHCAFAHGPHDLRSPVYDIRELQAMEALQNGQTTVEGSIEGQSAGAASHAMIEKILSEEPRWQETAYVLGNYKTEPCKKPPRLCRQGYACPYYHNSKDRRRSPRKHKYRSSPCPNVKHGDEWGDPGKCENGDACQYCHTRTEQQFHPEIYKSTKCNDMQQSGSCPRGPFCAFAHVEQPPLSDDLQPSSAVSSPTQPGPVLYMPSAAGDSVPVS
Setting: RNA with constant flanks, vertebrate orthologous sites, ends assumed
All sequences stand within: GGGAGUUCUACAGUCCGACGAUC … CAACAGAGGAUUGAGCAUCA
| Strand | bound/input enrichment [ratio] |
| --- | --- |
| AAAAUCCUGGCUGCUUGUAUCACCUCAGUGAGGUAAAGUCUCCAGGCAUUCAGCCAGGACCAGCCUCACCACCCUCAGACUCUGCACAUGUAAUUUUCUUUCUUUUGUACAUGCUCAUCU | 0.484 |
| GAAUAUAGUCACUCAAUUAAAAUUAUUUAGAUAAAAUUAUUGUUUAUGUUUUCUUUCAAGCAAUCUAUCCUAUUUUUAUCCAUUUGCAAAUGCCAGUUUUGUGUGGUUUCUUAGCAUAUC | 1.08 |
| GAGUGCUUAAGCCAAGAAAAAUUCUAAAAUGCUAUUUAUUUGUUUCUGUAAGUUUGUACAUAAUACUAUCAACCUCACAUUGUUCUUGAGUUUUGAUUUUUUUUAAUCAGUUUGAAUUUU | 0.497 |
| AACCCCGAUUUUAGAUGUGAUACCUAGGCUUUCAUUCCAGUUUGUUUUUGUCUUCUUGUUUAGAUACCAAUCUUUUAAAUUCUUGCAUUUUAGUAAGAAAGCUACCUUUUUAUGGAUGUU | 1.3 |
| GCAUGCACAUGCCUCUGUCACCAAAAGCAAACACGGUCUUCAGAAUCUCCAAUAGCAUUUUUAGUAUCUCCCUCUUUCCCUUCUGUUUCCCUAAUGCUUUAAAUGAUUAGAAGUCCUGGA | 3.55 |
| CAGCUGAUUCACUUAUUGGGAGAGCUGCACAUAUAGCUGUUCUUGAUUCAGAAAUAUUUUUAGAGAAAUUCUUUCUUGUUGCUGCCCUAAAAUAUUUUCAGUAGGAUAAAAACAUUGUUA | 0.574 |
| AAGAAAUGCUGGCUGCAAACCCUCAGGAUCGUCCAGAUGCUUUUGAACUAGAACUCAGAUUAGUACAAAUUGCAUUUAAAGAUAGCAGCUGGGAAACGUGACACAUGCAUUGUUUGCAAA | 0.614 |
| CUUCCUCCAACUUCAGUUUUUCAGGUUGUAGCUGUUCCAUCUUUUCUUCUUCCCCUCCUCUCACUGUUGCUUUCCUUUCCUUUCUGUCUGCCCAACUCCAGACACAUGAGCUCUUCCCCU | 1.28 |
